Published values gathered from unrelated publications.
Every numbered part comes from another study and shows a few of its results, in no order.

Sample 1
Target: RING finger protein unkempt homolog, zinc fingers 1-6, GST-SBP tag (UNK, Homo sapiens, UniProt Q9C0B0, residues 30-357)
Chain of UniProt Q9C0B0 (30-357, looked up): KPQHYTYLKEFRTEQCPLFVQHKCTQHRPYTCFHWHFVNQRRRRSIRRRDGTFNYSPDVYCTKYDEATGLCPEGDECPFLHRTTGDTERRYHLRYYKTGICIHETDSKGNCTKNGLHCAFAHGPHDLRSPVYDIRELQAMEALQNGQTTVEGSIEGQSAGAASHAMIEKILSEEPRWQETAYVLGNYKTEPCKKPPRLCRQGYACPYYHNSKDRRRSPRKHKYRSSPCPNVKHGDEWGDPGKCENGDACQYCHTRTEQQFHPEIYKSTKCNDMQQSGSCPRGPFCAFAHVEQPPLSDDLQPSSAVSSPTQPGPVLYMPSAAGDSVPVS
Technique: RNA Bind-n-Seq
Form: RNA
Sample: in vitro
Tested at: not given
Setting: RNA with constant flanks, human-mouse chimeric sites, ends assumed
Reference: input RNA pool
Direction: higher = stronger binding
| Strand | bound/input enrichment [ratio] |
| --- | --- |
| GGGAGUUCUACAGUCCGACGAUCUUUGUUUUUAUGCUAAGCACACGUGCUGGUGGUCUGGGCAUCAAUCUUGCAACUGCUGAUGUAGUCAUUUUGUAUGACUCAGAUUGGAAUCCGCAAGUUGAUCUUCAGGCUAUGGACCGUCAACAGAGGAUUGAGCAUCA | 0.128 |
| GGGAGUUCUACAGUCCGACGAUCGCAUAUGGUUAUCGAGGAAAGGACUGUAGAGCGAAUGUAUACCUGCUUCCCACAGGGGAGAUAGUUUAUUUUAUCGCAUCAGUAGUAGUCCUGUUUAAUUAUGAGGAGAGGACUCAGCGACAACAGAGGAUUGAGCAUCA | 3.02 |
| GGGAGUUCUACAGUCCGACGAUCACUCAGAGAUCCACCUCCCAAAGUGCUGGGAGUAAAGGUGUGGCCACUCAAUUCUCCUUGAUGGAUAUUUUAUAAAGUUAAUAUGAAUCUUCCUGUUCGUCCAGGGAAGAAAGAUUUGUUCAACAGAGGAUUGAGCAUCA | 0.417 |

Sample 2
Target: Sal-like protein 4, full length isoform A (SALL4, Homo sapiens, UniProt Q9UJQ4, residues 1-1053)
Chain of UniProt Q9UJQ4 (whole entry, looked up): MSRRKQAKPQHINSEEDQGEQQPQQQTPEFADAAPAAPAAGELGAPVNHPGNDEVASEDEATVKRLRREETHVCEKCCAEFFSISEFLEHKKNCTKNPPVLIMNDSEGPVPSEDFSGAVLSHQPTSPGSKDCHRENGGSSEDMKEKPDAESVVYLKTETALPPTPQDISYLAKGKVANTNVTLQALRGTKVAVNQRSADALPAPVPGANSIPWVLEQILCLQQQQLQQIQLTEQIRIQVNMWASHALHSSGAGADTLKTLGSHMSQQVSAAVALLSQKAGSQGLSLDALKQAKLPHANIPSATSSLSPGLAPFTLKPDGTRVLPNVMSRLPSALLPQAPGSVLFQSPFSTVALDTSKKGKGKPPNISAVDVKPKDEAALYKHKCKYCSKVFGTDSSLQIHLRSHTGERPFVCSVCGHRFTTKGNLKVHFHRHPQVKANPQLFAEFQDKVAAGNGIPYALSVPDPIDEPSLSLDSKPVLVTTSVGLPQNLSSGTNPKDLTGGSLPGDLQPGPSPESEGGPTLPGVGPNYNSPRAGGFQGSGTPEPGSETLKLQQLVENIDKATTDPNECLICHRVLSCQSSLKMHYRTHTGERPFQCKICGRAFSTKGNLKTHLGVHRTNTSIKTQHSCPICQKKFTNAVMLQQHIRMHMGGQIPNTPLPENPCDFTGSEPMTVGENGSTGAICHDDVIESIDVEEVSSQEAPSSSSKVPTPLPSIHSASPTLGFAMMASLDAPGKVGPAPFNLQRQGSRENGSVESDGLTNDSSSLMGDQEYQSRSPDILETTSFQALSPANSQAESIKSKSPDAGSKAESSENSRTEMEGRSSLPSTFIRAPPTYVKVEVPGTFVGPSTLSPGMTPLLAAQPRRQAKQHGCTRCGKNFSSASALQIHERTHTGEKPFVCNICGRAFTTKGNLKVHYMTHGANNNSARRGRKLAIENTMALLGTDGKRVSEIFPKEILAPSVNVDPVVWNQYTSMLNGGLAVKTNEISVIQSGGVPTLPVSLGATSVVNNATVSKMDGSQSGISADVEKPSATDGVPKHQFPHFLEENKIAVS
Technique: universal PBM
Form: double-stranded DNA, one strand shown
Sample: in vitro
Tested at: 600 nM
Setting: 8-mer, flanks averaged, mean of replicates
Direction: higher = stronger binding
| Strand | E-score |
| --- | --- |
| ACAATGGC | -0.0257 |
| CACCAGTA | 0.0311 |
| AAGCTTAA | 0.195 |
| CGTGGCAA | -0.0468 |
| CGCTACCC | -0.228 |
| CCCTCTCA | -0.206 |

Sample 3
Target: Ras GTPase-activating protein-binding protein 1, full length (G3BP1, Homo sapiens, UniProt Q13283)
Chain of UniProt Q13283 (whole entry, looked up): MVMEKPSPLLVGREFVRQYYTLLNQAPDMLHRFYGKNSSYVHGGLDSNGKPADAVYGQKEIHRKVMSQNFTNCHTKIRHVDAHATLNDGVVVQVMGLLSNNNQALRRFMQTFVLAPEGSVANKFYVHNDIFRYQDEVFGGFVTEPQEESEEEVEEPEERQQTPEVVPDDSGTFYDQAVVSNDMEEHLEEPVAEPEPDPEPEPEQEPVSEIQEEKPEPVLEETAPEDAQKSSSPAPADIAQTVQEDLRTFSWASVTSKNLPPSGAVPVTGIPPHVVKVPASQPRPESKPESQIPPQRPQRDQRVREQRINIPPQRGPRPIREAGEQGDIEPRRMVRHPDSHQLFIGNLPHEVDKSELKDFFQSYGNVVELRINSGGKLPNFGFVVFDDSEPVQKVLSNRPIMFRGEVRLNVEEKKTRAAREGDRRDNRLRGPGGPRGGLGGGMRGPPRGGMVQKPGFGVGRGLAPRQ
Technique: RNA Bind-n-Seq
Form: RNA
Sample: in vitro
Tested at: 200 nM
Setting: whole 134-nt RNA, ends assumed
With: 150 mM KCl
Reference: input library
Direction: higher = stronger binding
| Strand | log2 enrichment |
| --- | --- |
| GGGAGUUCUACAGUCCGACGAUCACCAUGCAGGUGGGAAUCUUUGGGAAGUGGGGCAAGGGGGGGAUAGGGAGGGGGGUAACACUUUGGGAACAGGUGGUCCCAGGUCGUUUCUGGAAUUCUCGGGUGUCAAGG | 1.07 |
| GGGAGUUCUACAGUCCGACGAUCCAAGUCCUGUGCUACACAUCGUAUGUACCGAAUCGGAAAAAGGAAAGGUUUUUGGAAAGUAUUAUGUUACGCCGUUCGGAUCUGCACUUCUGGAAUUCUCGGGUGUCAAGG | -1.31 |
| GGGAGUUCUACAGUCCGACGAUCUCCUGUGCUACACAUCGUAUGUACCGAAUCGGGAAAGGGUUUUUUUGGGAAAAAAAGGGAAAGUAUUAUGUUACGCCGUUCGGAUCUGCAUGGAAUUCUCGGGUGUCAAGG | -0.449 |

Further values, each from its own experiment
| Molecule | target | test | test system | conditions | scale | endpoint | value |
| --- | --- | --- | --- | --- | --- | --- | --- |
| PhoQ, residues 284 288 289 292 302 303 TSTLRA | PhoP, residues 12 14 15 18 19 NFCKL (Escherichia coli, UniProt P23836) | Sort-seq, refers to: YFP reporter | E. coli | PhoQ-PhoP variant library, with: 10 µM Mg2+ | reference: high Mg2+ state, higher = stronger signaling | fold induction | 5.43 |

Some of these lines once more (sample 2):
| Strand | E-score |
| --- | --- |
| AAGCTTAA | 0.195 |
| CGTGGCAA | -0.0468 |
